{"data": "Experimental data pooled from the literature", "note": "Protocols differ between the studies behind these lines."}
{"SMILES": "CCCCCCCCCCCC[S+]([O-])CC1OC(OC2C(N)CC(N)C(OC3OC(CN)C(O)CC3N)C2O)C(O)C(N)C1O (mixture of isomers)", "organism": "Enterococcus", "test system": "vancomycin-resistant", "MIC": "150 µg/mL"}
{"SMILES": "CC1C=CC=CC(C)C2C=CC3CC(C)(O)C(O[N+](=O)[O-])C(C)C3C2C(=O)C(Cl)(Cl)C(=O)C(C)C(=O)O1 (stereo not shown)", "organism": "Corynebacterium glutamicum", "test": "broth microdilution", "test system": "DSM 20300", "MIC": "0.1 µg/mL"}
{"SMILES": "CC(/C=C/C(O)=C1/C(=O)CNC1=O)=C\\[C@@H](C)[C@H]1O[C@@]2(C)O[C@H](C[C@@H]3O[C@@]32C)[C@@H]1C", "organism": "Enterococcus", "test system": "vancomycin-resistant", "MIC": "> 100 µM"}
{"SMILES": "CN(C)c1cc(CNC2CCCCC2)c(O)c2c1C[C@H]1C[C@H]3[C@H](N(C)C)C(O)=C(C(N)=O)C(=O)[C@@]3(O)C(O)=C1C2=O", "organism": "Enterococcus faecalis", "test": "microbial growth, broth dilution", "MIC": "1 µg/mL"}
{"SMILES": "Oc1c(Br)c(Cl)c(Br)c2nc3c(C(F)(F)F)cc(C(F)(F)F)cc3nc12", "organism": "Enterococcus", "test": "broth microdilution", "test system": "VRE 700221", "MIC": "3.13 µM"}
{"SMILES": "COC1CCN(Cc2cc(N(C)C)c3c(c2O)C(=O)C2=C(O)[C@]4(O)C(=O)C(C(N)=O)=C(O)[C@@H](N(C)C)[C@@H]4C[C@@H]2C3)CC1", "organism": "Enterococcus faecalis", "test": "microbial growth, broth dilution", "MIC": "1 µg/mL"}
{"SMILES": "CC[C@H](C)[C@@H]1NC(=O)[C@@H]([C@@H](C)O)NC(=O)CNC(=O)[C@H](CC(=O)O)NC(=O)CNC(=O)[C@H](CC(=O)O)NC(=O)CNC(=O)[C@H]2CCCCN2C(=O)[C@@H](NC(=O)[C@H](CC(=O)O)NC(=O)/C=C/CCCCCCCCCC(C)C)CNC(=O)[C@@H]2CCCN2C1=O", "organism": "Staphylococcus aureus", "test system": "MRSA USA300", "conditions": "together with: Ca2+ 10 mM", "MIC": "2 µg/mL"}
{"SMILES": "O=C(NN1C(=O)C(Cl)C1c1ccccc1Cl)c1ccc(-n2cccc2)cc1 (stereo not shown)", "organism": "bacteria panel", "conditions": "all tested bacteria", "MIC": "1 µg/mL"}
{"SMILES": "CCCCCCCCCCCCCCCCCCCCCCCCCCCCCCOC(=O)/C=C/c1ccc(O)cc1", "organism": "Nakaseomyces glabratus", "test": "broth microdilution", "test system": "clinical isolate", "conditions": "48 h, 37 °C", "MIC": "125 µg/mL"}
{"SMILES": "C[C@@H]1C(=O)O[C@@H](C)/C=C/C=C\\[C@@H](C)[C@@H]2C=C[C@@H]3C[C@]4(C)O[C@@H]4[C@@H](C)[C@H]3[C@@H]2C(=O)C(Cl)(Cl)C1=O", "organism": "Corynebacterium glutamicum", "test": "broth microdilution", "test system": "DSM 20300", "MIC": "0.5 µg/mL"}
{"SMILES": "CN(C)c1cc(CNC(=O)C(C)(C)C)c(O)c2c1C[C@H]1C[C@H]3[C@H](N(C)C)C(O)=C(C(N)=O)C(=O)[C@@]3(O)C(O)=C1C2=O", "organism": "Enterococcus faecalis", "test": "microbial growth, broth dilution", "MIC": "2 µg/mL"}
{"SMILES": "CCOC1(C)CC2C=CC3C(C)C=CC=CC(C)OC(=O)C(C)C(=O)C(Cl)(Cl)C(=O)C3C2C(C)C1O (stereo not shown)", "organism": "Corynebacterium glutamicum", "test": "broth microdilution", "test system": "DSM 20300", "MIC": "> 3.2 µg/mL"}
{"SMILES": "CC(/C=C/C(O)=C1/C(=O)CNC1=O)=C\\[C@@H](C)[C@H]1O[C@@]2(C)O[C@H](C[C@@H]3O[C@@]32CO)[C@@H]1C", "organism": "Enterococcus", "test system": "vancomycin-resistant", "MIC": "> 100 µM"}
{"SMILES": "CC1C=CC=CC(C)C2C=CC3CC(C)(O)C(O)C(C)C3C2C(=O)C(Cl)(Cl)C(=O)C(C)C(=O)O1 (stereo not shown)", "organism": "Corynebacterium glutamicum", "test": "broth microdilution", "test system": "DSM 20300", "MIC": "> 6.4 µg/mL"}
{"SMILES": "N#Cc1ccc2cccc(O)c2n1", "organism": "all tested microorganisms", "test": "agar dilution", "MIC": "≥ 1500 µM"}
{"SMILES": "CN(Cc1cc(N(C)C)c2c(c1O)C(=O)C1=C(O)[C@]3(O)C(=O)C(C(N)=O)=C(O)[C@@H](N(C)C)[C@@H]3C[C@@H]1C2)CC(C)(C)C", "organism": "Enterococcus faecalis", "test": "microbial growth, broth dilution", "MIC": "0.5 µg/mL"}
{"SMILES": "CC1C=CC=CC(C)C2C=CC3CC(C)(O)C(Cl)C(C)C3C2C(=O)C(Cl)(Cl)C(=O)C(C)C(=O)O1 (stereo not shown)", "organism": "Corynebacterium glutamicum", "test": "broth microdilution", "test system": "DSM 20300", "MIC": "0.2 to 0.4 µg/mL"}
{"SMILES": "CN(C)c1cc(CNCc2ccccc2)c(O)c2c1C[C@H]1C[C@H]3[C@H](N(C)C)C(O)=C(C(N)=O)C(=O)[C@@]3(O)C(O)=C1C2=O", "organism": "Enterococcus faecalis", "test": "microbial growth, broth dilution", "MIC": "0.5 µg/mL"}
{"SMILES": "CCCCCCCCCCCCCCCCCCSCC1OC(OC2C(N)CC(N)C(OC3OC(CN)C(O)CC3N)C2O)C(O)C(N)C1O (stereo not shown)", "organism": "Enterococcus", "test system": "vancomycin-resistant", "MIC": "> 150 µg/mL"}
{"SMILES": "C=CCNCc1cc(N(C)C)c2c(c1O)C(=O)C1=C(O)[C@]3(O)C(=O)C(C(N)=O)=C(O)[C@@H](N(C)C)[C@@H]3C[C@@H]1C2", "organism": "Enterococcus faecalis", "test": "microbial growth, broth dilution", "MIC": "2 µg/mL"}
{"SMILES": "CCCCOC1C(C)C2C(C=CC3C(C)C=CC=CC(C)OC(=O)C(C)C(=O)C(Cl)(Cl)C(=O)C32)CC1(C)O (stereo not shown)", "organism": "Corynebacterium glutamicum", "test": "broth microdilution", "test system": "DSM 20300", "MIC": "> 3.2 µg/mL"}
{"SMILES": "CN(C)c1cc(CNC2CCCC2)c(O)c2c1C[C@H]1C[C@H]3[C@H](N(C)C)C(O)=C(C(N)=O)C(=O)[C@@]3(O)C(O)=C1C2=O", "organism": "Enterococcus faecalis", "test": "microbial growth, broth dilution", "MIC": "1 µg/mL"}
{"SMILES": "Oc1c(Br)cc(Br)c2nc3cc(C(F)(F)F)ccc3nc12", "organism": "Enterococcus", "test": "broth microdilution", "test system": "VRE 700221", "MIC": "0.39 µM"}
{"SMILES": "CN(C)c1cc(CNCc2ccc(O)cc2)c(O)c2c1C[C@H]1C[C@H]3[C@H](N(C)C)C(O)=C(C(N)=O)C(=O)[C@@]3(O)C(O)=C1C2=O", "organism": "Enterococcus faecalis", "test system": "JH2-2(pMV158), Tet L efflux", "MIC": "4 µg/mL"}
{"SMILES": "COC1(C)CC2C=CC3C(C)C=CC=CC(C)OC(=O)C(C)C(=O)C(Cl)(Cl)C(=O)C3C2C(C)C1O (stereo not shown)", "organism": "Corynebacterium glutamicum", "test": "broth microdilution", "test system": "DSM 20300", "MIC": "> 3.2 µg/mL"}
